Assay results from different studies.
Numbered parts are unrelated; each lists some results of a single study.

Study 1 — method: protein-binding microarray; form: double-stranded DNA, one strand shown; medium: in vitro; concentration: 2200 nM top; notes: 60-bp whole probe; with: salmon DNA 0.4 mg/ml; baseline: random background probes; reading: higher = stronger binding; endpoint: fitted relative affinity; constant ends, left off below: GCCTAGCAC … GTCTTGATTCGCTTGACGCTGCTG
Target: Interferon regulatory factor 7, full length, phosphomimetic (IRF7, Homo sapiens, UniProt Q92985, residues 1-503, S471D/S472D/S475D/S476D/S477D/S483D/S484D/S487D)
Residues (chain): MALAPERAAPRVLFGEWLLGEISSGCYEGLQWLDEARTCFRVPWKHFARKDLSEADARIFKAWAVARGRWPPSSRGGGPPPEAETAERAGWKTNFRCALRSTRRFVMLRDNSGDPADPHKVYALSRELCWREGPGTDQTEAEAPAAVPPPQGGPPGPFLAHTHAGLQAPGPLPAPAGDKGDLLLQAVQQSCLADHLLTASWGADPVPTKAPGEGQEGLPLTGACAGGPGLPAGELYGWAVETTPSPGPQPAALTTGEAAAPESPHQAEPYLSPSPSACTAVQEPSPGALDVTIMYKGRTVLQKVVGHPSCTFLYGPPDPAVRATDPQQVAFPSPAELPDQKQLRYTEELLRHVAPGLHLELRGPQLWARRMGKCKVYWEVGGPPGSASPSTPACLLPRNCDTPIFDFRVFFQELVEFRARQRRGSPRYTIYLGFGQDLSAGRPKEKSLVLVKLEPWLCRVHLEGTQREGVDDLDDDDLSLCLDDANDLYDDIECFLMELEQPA
TTAGGTATCGACTTACGGTTAGTGCTA: 0.974 z-score
TTAGATTTCGGGTTTCGATTAGTGCTA: 6.13 z-score
TTAGATCTCAGTCTAGATTAGTGCTAG: -0.235 z-score
GACGGTTTCGGTTCAGGGACGTGCTAG: 13 z-score
GACGATCTCAGCATCGAGACGTGCTAG: -0.0648 z-score
GACGGTTTCGGTCTCTGGACGTGCTAG: 7.82 z-score
TCAAAAGTCTTTTATGGTACTGTGCTA: -0.472 z-score
TCAGTCCTCTCTCTATTACTGTGCTAG: 2.01 z-score
TCAAGTTTCCATTTTCTACTGTGCTAG: 5.19 z-score
TTAGAATTCAGTATCGATTAGTGCTAG: 0.0622 z-score
TTAGTTTTCGGGACTGGGTTAGTGCTA: 3.6 z-score
TAAGGACTGCTTTTCCTTTAGTGCTAG: 1.5 z-score
GATGGTCTCCTTTTCCTGACGTGCTAG: 1.5 z-score
TTAGATCTGGGGTTTCGATTAGTGCTA: 2.48 z-score
TTAGGTCTCCCTATCCTTTAGTGCTAG: 0.942 z-score
TTAGGTCTCCTTATCGTTTAGTGCTAG: 0.994 z-score
TCAGATTTCCTTCACCCACTGTGCTAG: 2 z-score
TACGGTTCCGGTTTCGGGACGTGCTAG: 5.84 z-score
ACCCGAGACACCGCCCCTTTGTGCTAG: -0.0905 z-score
GGGGTTTCGGATGGGATGTCGTGCTAG: 3.01 z-score
ATTTTTTTTTTCATCATTGCGTGCTAG: 1.88 z-score
TTAGGTAGCGGTCTCGGTTAGTGCTAG: 0.0207 z-score
TTAGGTACCCTACTGCTTTAGTGCTAG: 0.484 z-score

Study 2 — method: RNA Bind-n-Seq; form: RNA; medium: in vitro; concentration: not given; baseline: input RNA pool; reading: higher = stronger binding; endpoint: bound/input enrichment
Target: RING finger protein unkempt homolog, zinc fingers 1-6, GST-SBP tag (UNK, Homo sapiens, UniProt Q9C0B0, residues 30-357)
Sequence of UniProt Q9C0B0 (30-357, looked up): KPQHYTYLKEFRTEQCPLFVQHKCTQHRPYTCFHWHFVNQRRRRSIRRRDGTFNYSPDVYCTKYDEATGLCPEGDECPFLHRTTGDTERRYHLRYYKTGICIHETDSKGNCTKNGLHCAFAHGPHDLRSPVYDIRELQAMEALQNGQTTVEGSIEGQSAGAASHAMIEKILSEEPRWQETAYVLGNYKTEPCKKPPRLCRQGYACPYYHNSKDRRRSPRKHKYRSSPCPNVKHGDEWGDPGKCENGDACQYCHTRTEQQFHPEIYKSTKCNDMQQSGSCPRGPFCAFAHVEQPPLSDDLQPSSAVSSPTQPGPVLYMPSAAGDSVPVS
Notes: RNA with constant flanks, human-mouse chimeric sites, ends assumed
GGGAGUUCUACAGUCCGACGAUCGAAUCCUACUCAGGCGGUCCCACAACAACCAAGCUCACAGCAGCAGCAUCUUAGUCACAGUUAGGUAGUUUUGGGGCUCUGUGGCCAGGGUUUUAUUCACAUGCAGGUUUGGAAAAUGUACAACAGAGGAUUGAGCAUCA: 1.73 ratio
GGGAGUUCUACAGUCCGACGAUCUAUCCAACUUUCUUGCCACAUUUUGAAUUCCAAGACAUUAUUCCUCCAGAUGACUUCCUAACGAGUGAUGAAGAGCAAGAUUCCGUUUUAUUUGGAACUAUGAGAGGACAAGUUGUUGGACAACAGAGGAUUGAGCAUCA: 0.162 ratio
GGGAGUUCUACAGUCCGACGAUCGAAAGAGAACUAAAGCAACUAAUAGAGAAGAGGAUUGGCAAAGAGAAUUUCAUAGAGAAACUAGGAUUUAUUAGCAAACAUGAGUUAUAUUCCAGAGGCAUCUCAGAACCCCAGCCAAACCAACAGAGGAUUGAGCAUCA: 10 ratio
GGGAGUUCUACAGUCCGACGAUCUACUCAACUUUCUUGCCACGUUUUGAAUUCCAAGACAUUAUCCCUCCAGAUGACUUCCUAACGAGUGAUGAAGAGCAAGAUUUGGUUUUAUUUGGAACUAUGAGAGGACAAGUUGUUGGACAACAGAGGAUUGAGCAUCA: 0.208 ratio
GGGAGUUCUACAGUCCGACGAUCGGGGAGAAACCUUAUGAGUGUGUGCAGUGUGGGAAAUCCUACAGUCAGAGCUCAAACCUCUUCAGACAUCAGAGACGACACAAUGCAGAAAAACUUUUGAAUGUUGUGAAGGUUUAAGAACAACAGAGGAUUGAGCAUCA: 0.252 ratio
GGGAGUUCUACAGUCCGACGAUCGAUAAGAAAAGCUUGUUGGAGACCCGCUUGCAUGUCACUGGCAGAGACCUGAGGUGUAAAAUAGCUGAAACUUUCGGAUUUCAAGAAAAUUACAUCAAGAUCGUAAUAAAUAAGAAACAGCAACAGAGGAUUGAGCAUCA: 0.2 ratio
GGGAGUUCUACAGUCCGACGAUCUAACCACAUCAAGAUGGUUGGGAAGCUGAAGCAGAACUUACUCUUGGCGUGUCUGGUGAUUAGUUCUGUGACUGUGUUUUACCUGGGCCAGCAUGCCAUGGAGUGCCAUCACCGGAUAGACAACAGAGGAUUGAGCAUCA: 0.278 ratio
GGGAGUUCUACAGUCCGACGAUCCGGAGCCCCUCCCUCUCACAGGCCCAAGAUGUGACCCACCAGUGCCUUUUGUCUUCCUGUCAGCUCUGUCAAUCACGCCUGUCCUCUCACGCCCACACCAAGUGCCCAAAGUGGGGAGGGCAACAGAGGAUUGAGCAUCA: 0.294 ratio
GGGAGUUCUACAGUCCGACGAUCAAUUUCCUGUCAUACUUUUUAGACAUUGCCAUAGGUAUUACAGAGCACCUGGCCACAUUCUAGGUUUGAAUUAUUUCUCAGCUAUGGAUAUGAUCAAAUGAGAACACUGCUUAACUAAUGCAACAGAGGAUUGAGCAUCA: 1.16 ratio
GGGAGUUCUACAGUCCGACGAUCGUCAACAGCUGCCUCAACCCCAUCCUCUAUGCUUUCUUGGAUGAGAACUUCAAGGCCUGCUUCCGCAAGUUCUGCUGUGCAUCUGCCCUGCGCCGGGAGAUGCAGGUGUCUGACCGCGUGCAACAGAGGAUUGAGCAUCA: 0.297 ratio
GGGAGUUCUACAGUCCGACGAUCGACUUGGGACCGUCCUGGGCUAGUACAAAUAGCGGCAGUGGAGGCUCGAGAGGAAAGUUGUUAGUGGGAGGCAGUGGUAGAGGCCGUCAUGUACGGUCCUUUACUCGAUAGAUGUGUUCUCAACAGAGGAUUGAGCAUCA: 0.504 ratio

Study 3 — method: RNA Bind-n-Seq; form: RNA; medium: in vitro; concentration: 365 nM; baseline: no-protein control; reading: higher = stronger binding; endpoint: RBNS enrichment (R)
Target: RNA binding protein fox-1 homolog 2, RRM domain, GST-SBP tag (RBFOX2, Homo sapiens, UniProt O43251-10, residues 100-194)
Notes: natural RNA segment, single round, ends assumed
Target sequence (chain): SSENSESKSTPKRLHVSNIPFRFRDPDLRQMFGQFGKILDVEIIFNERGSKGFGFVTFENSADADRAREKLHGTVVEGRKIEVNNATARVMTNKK
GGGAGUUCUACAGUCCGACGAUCUUAACAAACAUUAGCUGCUCCACCUAUGUAGAGUAUAUCAUGUGAGGUUGUUGCUUUGAAUAUCAAUCAGAAAAUCCACAUCUGAAGACAAAUUUGAACCCCAUUUUAGAUGGAAUUCUCGGGUGCCAA: 0.349
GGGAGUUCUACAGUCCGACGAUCCUACCAGAGAGCAGAAUGCUUGUGGCACCCAUUUGAGGCACAGCCCUCAGGAUGCAGGGUGCUGGGUCUUCUGGUUUUGUUUGGGUUAAAACAGAACUUUCCCAUUAUCUUGGAAUUCUCGGGUGCCAA: 6.87
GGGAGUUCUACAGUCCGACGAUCUUAUGAGAUGUAUCUUUUGCUCUCUCUUGCUCUCUUAUUUGUACCGGUUUUUGUAUAUAAAAUUCAUGUUUCCAAUCUCUCUCUCCCUGAUCGGUGACAGUCACUAGCUUUGGAAUUCUCGGGUGCCAA: 0.948
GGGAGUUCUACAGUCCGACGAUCACGCUCUGGGAGGGGUACUGGGUACCCCACCCUUCACUGAGGCCUUUGGAUUUGUCUCAGUGCCUUAGCAUCUGAAAACCUGUGCUUGUAUAUGUGUGUGUAUGUGUAGGUGGAAUUCUCGGGUGCCAA: 0.925
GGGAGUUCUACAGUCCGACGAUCGAGACACAUUGCCUUCUGCAGCUGGGAGACAGAGGAAGGAUUCCCUUUCUUCACCAAGUGCAAUAGAUUUCCUCAUCUGAUAGGCUGUUGCUUUACCGUCACACGCGAUGUGGAAUUCUCGGGUGCCAA: 0.351
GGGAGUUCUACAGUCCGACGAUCGGUAUCACCGAGGAAACCUUGCCCCCAUCACUCAGCAUUGCACUUAGAUACAGAAUGAGUUAGAUAAACUUGGCUUGUCUAGAGACCCAUGUCAUCUUAACCUAAAGGGAUGGAAUUCUCGGGUGCCAA: 0.428
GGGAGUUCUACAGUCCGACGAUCAAGGGCAGGACCAAUGGCUGAGCCUCGUGUCCAGACUCAGAGGGCUGGAUUUUGGUUCCCUUGUAAAGACAGAGUGAAUUUCAGUAUAAAGAUCACCCGUUGUAUUCACCUGGAAUUCUCGGGUGCCAA: 0.884
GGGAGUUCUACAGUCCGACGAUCAACCAAAUAGGCUUUAGAAGAGAUUAUCCUAUAUUCCUAUCAGUAUAAUACUAAAAUGUAACUUUUUAAUCAUCUGGUUUUUAAAAGAUAAACAGUUUAGCCCAUCUCUCUGGAAUUCUCGGGUGCCAA: 0.302
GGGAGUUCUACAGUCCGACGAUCGCUUCCCCCUUCCCCUGAGACUGGUGGACUGAACUCCAGUCAAGUUGAGUUCAAGUGAAAGAUUCUUCCAGGGUUUUAUUUUUUCCCCUCCUAACAAAGUCUCAUAGUGUUGGAAUUCUCGGGUGCCAA: 0.825

Study 4 — method: protein binding microarray; form: double-stranded DNA, one strand shown; medium: in vitro; concentration: not given; baseline: not given; reading: higher = stronger binding; endpoint: E-score
Target: Histone acetyltransferase KAT6A, winged helix 2, GST fusion (KAT6A, Homo sapiens, UniProt Q92794, residues 85-181)
Notes: 8-mer, flanks averaged, mean of 2 arrays, mostly near background
Construct (chain): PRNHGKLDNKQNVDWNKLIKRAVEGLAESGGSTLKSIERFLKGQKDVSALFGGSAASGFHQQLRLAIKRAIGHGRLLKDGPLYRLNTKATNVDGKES
AGGCGCGA: 0.197
AGAATAAG: 0.0673
ATTGGTAG: 0.00549
ACGCGAGT: 0.0175
GAAGACAA: 0.123
CATACAAC: -0.0902
ACAGGAAA: 0.0764
AAGGACCT: 0.0962
CCACTCTA: -0.0671
CAGCCATC: -0.0615
CAACGCTC: -0.135
CTATAATC: -0.114
ACCCGCCC: 0.271
CAAATAAA: 0.0125
GAGAGTCA: -0.157
CTGTCCGA: 0.143

Excerpt of the above (study 1):
TTAGATCTGGGGTTTCGATTAGTGCTA: 2.48 z-score
TAAGGACTGCTTTTCCTTTAGTGCTAG: 1.5 z-score
GACGGTTTCGGTTCAGGGACGTGCTAG: 13 z-score
GGGGTTTCGGATGGGATGTCGTGCTAG: 3.01 z-score
